Measurements pooled from the literature.
Protocols differ between the studies behind these lines.
Target: Serine/threonine-protein kinase VRK2 (VRK2, Homo sapiens, UniProt Q86Y07)

Compound | test | conditions | scale | endpoint | value
COc1c(Cl)cccc1Nc1c(-c2ccncc2C#C[C@@]2(C)CCCN2C(=O)/C=C/CN(C)C)[nH]c2c1C(=O)NCC2 | binding, competition with immobilised ligand | 3 µM | – | remaining binding | 53%
CNC(=O)C[C@H](Cc1ccc(C#N)cc1)NC(=O)c1cc(-c2ccc(CN[C@H](C)c3ccc(C)cc3)o2)ccc1Cl | enzyme activity, inhibitor | 1 µM | – | activity vs control | 96%
Cc1cc(NC(=O)[C@H](O)c2cc(F)cc(F)c2)ccc1-c1cnc(N)c(C(=O)NC(C)C)c1 | binding, competition with immobilised ligand | 10 µM | – | remaining binding | 4.2%
C=CC(=O)N1Cc2nc(-c3cc(-c4cc(Cl)cnc4Cl)c(F)cc3F)n(-c3ccncn3)c2C1 | cell-free assay, inhibitor | 1 µM | – | inhibition | 5.3%
CNC(=O)C1CCN(c2cc(C)c(F)cc2NC(=O)c2ccc(-c3cc(O)ccc3C)c(C)c2)CC1 | binding, competition with immobilised ligand | 1 µM | – | remaining binding | 66%
C=CC(=O)N1CCCC(n2c(=O)c3ncccc3n(Cc3ccc(Oc4ccccc4)cc3)c2=O)C1 (centres unmarked) | cell-free assay, competition with immobilised ligand | 1 µM | – | remaining binding | 63%
CN1CC[C@@H](COc2cnc(C#N)cc2-c2ccn3nc(NC(=O)C4CC4)cc3c2)C1 | enzyme activity, inhibitor | 1 µM | – | inhibition | -6%
Cc1nc2c(F)cc(-c3nc(Nc4ccc(CNC(=O)CCCCCCC(=O)NO)cc4)ncc3F)cc2n1C(C)C | enzyme activity, inhibitor | 1 µM | – | inhibition | 8%
CCn1cc(C(=O)O)c(=O)c2c(N)c(F)c(NC3CCCCC3)cc21 | kinase activity | 0.1 µM, with: ATP at Km | – | inhibition | -15%
COc1cc(Nc2nccc(-c3cnn4nc(OC)ccc34)n2)cc(C(F)(F)F)c1 | binding, competition with immobilised ligand | 1 µM | – | remaining binding | 84%
CNC1C[S+]2CC[S+]3CC[S+](C1)[Ru-4]321([N]=C=S)[n]2c3ccc(OC)cc3c3c4c(c5cc(F)c[n+]1c5c32)C(=O)NC4=O (centres unmarked) | KinomeScan | 0.1 µM | baseline: untreated | remaining binding | 97%
CC(C)=CC1OC(C)(C)C2C=C3C(=O)C(Cl)=CC(O)C3C3C(O)C4OC4C(=O)C132 (centres unmarked) | cell-free assay, competition with immobilised ligand | 10 µM | – | remaining binding | 96%
NC(=O)[C@@H](O)C[C@H]1CCc2sc3ncnc(O[C@H]4CC[C@H](N5CCOCC5)CC4)c3c21 | enzyme activity, inhibitor | 10 µM | – | inhibition | -4%
CCN1CCN(Cc2ccc(C(=O)Nc3ccc(C)c(NCc4cnc5[nH]ccc5c4OC)c3)cc2C(F)(F)F)CC1 | binding, competition with immobilised ligand | 1 µM | – | remaining binding | 75%

For quick reference, copied from above:
Compound | test | conditions | scale | endpoint | value
CNC(=O)C[C@H](Cc1ccc(C#N)cc1)NC(=O)c1cc(-c2ccc(CN[C@H](C)c3ccc(C)cc3)o2)ccc1Cl | enzyme activity, inhibitor | 1 µM | – | activity vs control | 96%
Cc1cc(NC(=O)[C@H](O)c2cc(F)cc(F)c2)ccc1-c1cnc(N)c(C(=O)NC(C)C)c1 | binding, competition with immobilised ligand | 10 µM | – | remaining binding | 4.2%
